{"data": "Measured values gathered from unrelated publications", "note": "Lines come from different studies, so protocols differ. “And” joins repeats or separate records; there may be more than shown. ± marks the error that the study gave."}
{"Molecule": "thimet oligopeptidase", "assay": "co-immunoprecipitation", "test system": "human RBC cytosol", "conditions": "DMTMM crosslinker, unit not given, added: Band 3 peptide 1-56 bait", "how to read": "reference: negative control", "quantity": "co-IP enrichment", "value": 448000}
{"Molecule": "maraviroc", "assay": "ELISA", "test system": "HIV-infected mice, plasma", "conditions": "i.p., 120 mg/kg twice daily, 3 weeks post infection", "how to read": "reference: HIV-infected untreated mice, increase", "quantity": "Aβ40 level", "value": "1.67 fold"}
{"Molecule": "CpG-ODN 1826", "test system": "mouse B16-F10 tumour, tumour", "conditions": "dose not given, day 8", "how to read": "reference: control", "quantity": "LAG-3+ CD4 T cells", "value": "no effect"}
{"Molecule": "FKBP12", "assay": "co-immunoprecipitation", "test system": "human RBC membrane", "conditions": "DMTMM crosslinker, unit not given, added: Band 3 peptide 1-56 bait", "how to read": "reference: negative control", "quantity": "co-IP enrichment", "value": 0}
{"Molecule": "calcium", "assay": "ion current, two-electrode voltage clamp", "test system": "Xenopus oocytes", "conditions": "10 mM, 80 mV, added: niflumic acid present", "quantity": "desensitization time constant", "value": "12.8 s and 7.59 s and 8.47 s and 7.82 s and 7.3 s"}
{"Molecule": "QYLAPRNTL", "assay": "CD8 T cell response", "test system": "peptide, naive splenocytes as APCs, mouse", "conditions": "2 µg/mL, 48 h", "quantity": "IFN-γ ELISpot response", "value": "negative"}
{"Molecule": "glucagon", "test system": "mouse", "conditions": "dose not given, 1 h", "quantity": "plasma free fatty acids", "value": "0.349 mmol/L and 0.797 mmol/L and 0.573 mmol/L and 0.536 mmol/L and 0.427 mmol/L and 0.411 mmol/L"}
{"Molecule": "insulin degludec", "assay": "euglycemic clamp, chemiluminescence", "test system": "healthy human volunteers, C-peptide reduction at least 50%, serum", "conditions": "subcutaneous, 0.4 IU/kg", "quantity": "C-peptide, mean, post dose", "value": "0.82 ± 0.28 ng/mL"}
{"Molecule": "Pam2CSK4", "test system": "APP/PS1 mouse, cortex", "conditions": "local injection, dose not given, unit not given", "how to read": "reference: injected over adjacent side", "quantity": "Iba1 level", "value": "4.54 and 6.51 and 4.68"}
{"Molecule": "lysophosphatidic acid", "test system": "mouse small intestinal enteroids", "conditions": "concentration not given, applied post-irradiation", "quantity": "enteroid survival", "value": "no effect"}
{"Molecule": "GPVSRSVEM", "assay": "CD8 T cell response", "test system": "peptide, naive splenocytes as APCs, mouse", "conditions": "2 µg/mL, 48 h", "quantity": "IFN-γ ELISpot response", "value": "negative"}
{"Molecule": "MTVCNASQRQAHAQATAVSL", "assay": "phage binding", "test system": "peptide, NSCLC cell line panel", "conditions": "selectivity at least 20", "quantity": "number of cell lines", "value": 2}
{"Molecule": "human immunoglobulin gamma-1 constant", "assay": "co-immunoprecipitation", "test system": "human RBC membrane", "conditions": "no crosslinker, unit not given, added: Band 3 peptide 1-56 bait", "how to read": "reference: negative control", "quantity": "co-IP enrichment", "value": 0}
{"Molecule": "liraglutide", "test system": "Wistar rat, female, diet-induced obese", "conditions": "subcutaneous, dose not given, last 5 days of treatment", "quantity": "food intake", "value": "62.1 ± 7.4 kcal/day"}
{"Molecule": "human GAPDH", "assay": "co-immunoprecipitation", "test system": "human RBC cytosol", "conditions": "unit not given, added: Band 3 peptide 1-56 bait", "how to read": "reference: negative control", "quantity": "co-IP enrichment", "value": 3.71}
{"Molecule": "SPFGIVKAL", "assay": "CD8 T cell response", "test system": "peptide, naive splenocytes as APCs, mouse", "conditions": "2 µg/mL, 48 h", "quantity": "IFN-γ ELISpot response", "value": "negative"}
{"Molecule": "heparin sodium", "assay": "refers to: activated partial thromboplastin time", "test system": "human healthy volunteers", "conditions": "intravenous infusion, 8 IU/kg/h", "how to read": "reference: baseline", "quantity": "maximum aPTT ratio", "value": 1.12}
{"Molecule": "difelikefalin", "test system": "Japanese haemodialysis patients with pruritus", "conditions": "intravenous, 0.5 µg/kg, 8 weeks", "quantity": "PGIC very much improved", "value": "37.3%"}
{"Molecule": "PPFVAYLHL", "assay": "CD8 T cell response", "test system": "peptide, naive splenocytes as APCs, mouse", "conditions": "2 µg/mL, 48 h", "quantity": "IFN-γ ELISpot response", "value": "negative"}
{"Molecule": "somatropin", "test system": "children with severe GH deficiency, short stature", "conditions": "dose not given, mutation-negative cases, mean", "quantity": "height gain in first year of therapy", "value": "10 cm"}
{"Molecule": "YEQDPWGVKWWY", "test system": "peptide, mouse, CP model, serum", "conditions": "0.154 µmol/kg, 4 weeks", "how to read": "reference: untreated CP mice", "quantity": "serum IL-2", "value": "inhibited"}
{"Molecule": "insulin aspart", "assay": "euglycaemic glucose clamp", "test system": "human, adults with type 1 diabetes, up to 35 years", "conditions": "subcutaneous, 0.2 U/kg", "quantity": "time to GIRmax", "value": "125 min"}
{"Molecule": "insulin degludec", "assay": "euglycaemic hyperinsulinaemic clamp", "test system": "healthy Chinese male humans", "conditions": "subcutaneous, 0.4 IU/kg, 24 h, 1 FC level, single dose, reference formulation", "quantity": "maximum glucose infusion rate", "value": "3.02 ± 0.61 mg/kg/min"}
{"Molecule": "insulin aspart", "assay": "euglycaemic clamp", "test system": "human, type 1 diabetes", "conditions": "subcutaneous, 0.3 U/kg, geometric mean", "quantity": "maximum glucose infusion rate", "value": "9.55 mg/kg/min"}
{"Molecule": "GSGAGIESNV", "tested on": "human SCRIB PDZ3-4 tandem (MBP fusion)", "assay": "automated holdup", "test system": "peptide, crude extract", "conditions": "concentration not given, corrected by standard peak, unit not given", "how to read": "reference: biotin control resin, higher = stronger binding", "quantity": "binding intensity", "value": 0.698}
{"Molecule": "tripeptidyl peptidase 2", "assay": "co-immunoprecipitation", "test system": "human plasma", "conditions": "unit not given, added: Band 3 peptide 1-56 bait", "how to read": "reference: negative control", "quantity": "co-IP enrichment", "value": 0}
{"Molecule": "GSGAGKETEC", "tested on": "human MAGI1-3/6 PDZ construct (MBP fusion)", "assay": "automated holdup", "test system": "peptide, purified PDZ protein", "conditions": "concentration not given, unit not given", "how to read": "reference: biotin control resin, higher = stronger binding", "quantity": "binding intensity", "value": -0.131}
{"Molecule": "insulin detemir", "assay": "self-monitoring", "test system": "type 2 diabetic patients", "conditions": "dose not given, one-week bedtime treatment", "quantity": "mean blood glucose", "value": "130 ± 15 mg/dL"}
{"Molecule": "MYKQELDDI", "assay": "CD8 T cell response", "test system": "peptide, naive splenocytes as APCs, mouse", "conditions": "2 µg/mL, 48 h", "quantity": "IFN-γ ELISpot response", "value": "negative"}
{"Molecule": "cotadutide", "test system": "C57BL/6J mouse, AMLN diet NASH model", "conditions": "dose not given, terminal", "quantity": "plasma insulin", "value": "0.6 ± 0.1 ng/mL"}
{"Molecule": "TCP-1 alpha", "assay": "co-immunoprecipitation", "test system": "human RBC cytosol", "conditions": "DSSO crosslinker, unit not given, added: Band 3 peptide 1-56 bait", "how to read": "reference: negative control", "quantity": "co-IP enrichment", "value": 13100}
{"Molecule": "SGTHFSLFL", "assay": "CD8 T cell response", "test system": "peptide, naive splenocytes as APCs, mouse", "conditions": "2 µg/mL, 48 h", "quantity": "IFN-γ ELISpot response", "value": "negative"}
{"Molecule": "CCT4", "assay": "co-immunoprecipitation", "test system": "human RBC membrane", "conditions": "DSSO crosslinker, unit not given, added: Band 3 peptide 1-56 bait", "how to read": "reference: negative control", "quantity": "co-IP enrichment", "value": 3.98}
{"Molecule": "SSPGMSQEV", "assay": "CD8 T cell response", "test system": "peptide, naive splenocytes as APCs, mouse", "conditions": "2 µg/mL, 48 h", "quantity": "IFN-γ ELISpot response", "value": "negative"}
{"Molecule": "insulin", "test system": "gestational diabetes women", "conditions": "dose not given, treated arm", "quantity": "caesarean birth incidence", "value": "24%"}
{"Molecule": "RPDWLVNRL", "assay": "CD8 T cell response", "test system": "peptide, naive splenocytes as APCs, mouse", "conditions": "2 µg/mL, 48 h", "quantity": "IFN-γ ELISpot response", "value": "negative"}
{"Molecule": "human complement C3", "assay": "co-immunoprecipitation", "test system": "human RBC cytosol", "conditions": "no crosslinker, unit not given, added: Band 3 peptide 1-56 bait", "how to read": "reference: negative control", "quantity": "co-IP enrichment", "value": 0}
{"Molecule": "semaglutide", "test system": "Wistar rat, male, diet-induced obese", "conditions": "subcutaneous, dose not given", "quantity": "cumulative caloric intake", "value": "3210 ± 98 kcal"}
{"note": "Some of these lines once more:"}
{"Molecule": "cotadutide", "test system": "C57BL/6J mouse, AMLN diet NASH model", "conditions": "dose not given, terminal", "quantity": "plasma insulin", "value": "0.6 ± 0.1 ng/mL"}
{"Molecule": "TCP-1 alpha", "assay": "co-immunoprecipitation", "test system": "human RBC cytosol", "conditions": "DSSO crosslinker, unit not given, added: Band 3 peptide 1-56 bait", "how to read": "reference: negative control", "quantity": "co-IP enrichment", "value": 13100}
{"Molecule": "SGTHFSLFL", "assay": "CD8 T cell response", "test system": "peptide, naive splenocytes as APCs, mouse", "conditions": "2 µg/mL, 48 h", "quantity": "IFN-γ ELISpot response", "value": "negative"}
{"Molecule": "CCT4", "assay": "co-immunoprecipitation", "test system": "human RBC membrane", "conditions": "DSSO crosslinker, unit not given, added: Band 3 peptide 1-56 bait", "how to read": "reference: negative control", "quantity": "co-IP enrichment", "value": 3.98}
